# Measured values from different studies.
# ± gives the spread as reported.
SMILES,assay,test system,conditions,Tmax [h]
CC[C@H](C)[C@H](NC(=O)[C@H](Cc1ccc(O)cc1)NC(=O)[C@@H](NC(=O)[C@H](CCCNC(=N)N)NC(=O)[C@@H](N)CC(=O)O)C(C)C)C(=O)N[C@@H](Cc1c[nH]cn1)C(=O)N1CCC[C@H]1C(=O)O,LC-MS/MS,"Sprague-Dawley rat, plasma","sc, 10 mg/kg/day, day 27",0.25
COc1ccc([C@@H]2CC(=O)c3c(O)cc(O[C@@H]4O[C@H](CO)[C@@H](O)[C@H](O)[C@H]4O[C@@H]4O[C@@H](C)[C@H](O)[C@@H](O)[C@H]4O)cc3O2)cc1O,LC-MS/MS,"Sprague-Dawley rat, male, obese, plasma","oral, 100 mg/kg",2.33 ± 1.53
CCCC[C@H](OC(C)=O)c1ccccc1C(=O)O,,"Sprague-Dawley rats, both sexes, whole blood","intravenous, 5 mg/kg single dose",0.017
Cc1cc(-c2ccc(NC(=S)Nc3ccc(CNC(=O)CCC(C(=O)O)N4CCN(CC(=O)O)CCN(CC(=O)O)CC4)cc3)c(C)c2)ccc1/N=N/c1ccc2c(S(=O)(=O)O)cc(S(=O)(=O)O)c(N)c2c1O (stereo not drawn),dynamic PET/CT,"Sprague-Dawley rats female, liver","intracisternal infusion, median",1.83
O=C(NS(=O)(=O)c1cccs1)c1cc2ccccc2n1Cc1ccc(Br)c2ccccc12,,"Sprague-Dawley rat, male, plasma","oral, 20 mg/kg",1
Cc1cc2c(cc1O)C=C1C=CC(=O)C(C)(C)[C@H]1CC2,,"Sprague-Dawley rat male, plasma","iv, 2 mg/kg",0.08
O=C(O)/C=C\c1cc2ccoc2cc1O[C@@H]1O[C@H](CO)[C@@H](O)[C@H](O)[C@H]1O,,"rat, plasma","oral, 500 mg/kg Eu + 217 mg/kg Pc extract, dosed as combined Eu and Pc extracts",2.83 ± 1.89
OC1(C(F)(F)F)CCN(c2nc(Nc3ccnc(C(F)(F)F)c3)nc(-c3cccc(C(F)(F)F)n3)n2)C1 (stereo not drawn),,"Sprague-Dawley rat, both sexes, plasma","oral gavage, 5 mg/kg",6.33 ± 0.816
C=C(NC(=O)c1csc(-c2nc3c(cc2O)-c2nc(cs2)C(=O)NC(C(C)O)C(=O)NC(=C(C)OC)c2nc(cs2)C(=O)NC2c4nc(cs4)C(=O)NC(COC(=O)c4c5c6c(cccc6n4O)COC(=O)C(OC4CC(C)(O)C(N(C)C)C(C)O4)C2OC5)c2nc-3cs2)n1)C(N)=O (stereo not drawn),,"Sprague-Dawley rat, both sexes, plasma","intravenous infusion, 6 mg/kg, multiple doses, day 7",0.09

# A few entries again:
SMILES,assay,test system,conditions,Tmax [h]
C=C(NC(=O)c1csc(-c2nc3c(cc2O)-c2nc(cs2)C(=O)NC(C(C)O)C(=O)NC(=C(C)OC)c2nc(cs2)C(=O)NC2c4nc(cs4)C(=O)NC(COC(=O)c4c5c6c(cccc6n4O)COC(=O)C(OC4CC(C)(O)C(N(C)C)C(C)O4)C2OC5)c2nc-3cs2)n1)C(N)=O (stereo not drawn),,"Sprague-Dawley rat, both sexes, plasma","intravenous infusion, 6 mg/kg, multiple doses, day 7",0.09
